# Experimental data pooled from the literature.
# A part holds a random share of what one study measured.

# Study 1
# Target: RING finger protein unkempt homolog, zinc fingers 1-6, GST-SBP tag (UNK, Homo sapiens, UniProt Q9C0B0, residues 30-357)
# Technique: RNA Bind-n-Seq
# Form: RNA
# Sample: in vitro
# Concentration: not given
# Setting: RNA with constant flanks, human and mouse sites, ends assumed
# Reference: input RNA pool
# Reading: higher = stronger binding
# Shared flanks, not repeated: GGGAGUUCUACAGUCCGACGAUC … CAACAGAGGAUUGAGCAUCA
# Construct (chain): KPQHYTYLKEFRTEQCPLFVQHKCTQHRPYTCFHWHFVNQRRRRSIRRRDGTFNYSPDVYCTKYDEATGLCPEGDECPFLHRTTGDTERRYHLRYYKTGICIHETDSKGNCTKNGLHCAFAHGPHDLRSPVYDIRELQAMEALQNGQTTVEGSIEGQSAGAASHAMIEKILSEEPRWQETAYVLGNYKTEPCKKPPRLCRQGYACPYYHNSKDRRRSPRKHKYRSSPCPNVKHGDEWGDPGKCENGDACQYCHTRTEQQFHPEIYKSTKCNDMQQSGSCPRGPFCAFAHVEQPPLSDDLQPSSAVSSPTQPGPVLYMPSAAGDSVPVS
Sequence,bound/input enrichment [ratio]
GAGGAUCCGUACCCACACAAGUUCCACGUGGACAUCUCACUCACUCAGUUCAUCCAAGAAUAUAGUCACCUGCAGCCUGGGGACCACCUGACUGAUGUCACCCUCAAAGUGGCAGGCCGC,0.265
AACAAGCAAAACAAAACUUUCCAGCCAUUUUACUGCAGCAGUCUGUGAACUAAAUUUGUAAAUAUGGCUGCACCAUUUUUGUAGGCCUGCAUUGUAUUAUAUACAAGACGUAGGCUUUAA,0.226
AACUUCGUGCAUCGGUUUCCCUUUGUAGCUGUUUCAAUUGGCUUCCUUGUGAAUAAAGAGAUGGAGUUUGGAAUUGUGUACAGCUGUGUGGAAGAUAAGAUGUACACCGGCAGGAAAGGG,0.371
ACAGACUGUGUGGUAAUGAGGGAUCCUGCAAGCAAAAGAUCAAGAGGAUUUGGUUUUGUAACUUUUUCAUCCAUGGCUGAGGUUGAUGCUGCCAUGGCUGCAAGACCUCAUUCAAUUGAU,0.262
AAGUUAUAACUGGCAUCUACUUCUUGUUCUUCUAGAACACCGAAAAUCUCUCCCAGCACUUUAGAAAGGGGACCCUGACUGUGUUAAAGAAGAAGUGGGAGAACCCAGGGCUGGGAGCAG,0.138
GAAUUGGUACAAGCCAUGUUUCCCAAACUGAACAAUCAAGAAAGAGUUACACUGUUAGACCUUAUGAUAGCCAAGAUAACGAGUGAUGAGCCACUCACCAAGGAUGACAUCCCUGUGUUU,2.49
GAGGGCAAUGCAGCCACUUCCUAUCAGAAGCAGACUGACAAACCCAGCCACUGUAGCCAGUUUGUGACACCUCCGCGGAUGAGGAGACAGUUCUCAGCACCCAAUCUCAAAGCUGGUCGA,0.0962
GACAUGCACGUGGCCGACAUGCUUGUUAAGGUGAAUGCCCUUAUCAAGGAGCGUGAAGGCUAUGCCCCUGGCACAGAAUUCCACCGAUGCAAGGAGAUGUCUGAGUACUGUAGUACUCUG,0.101
CCUCUUGUGGGCAAGGACAGUUUUAAUGUUGAUCCCAGCAGUGUGUGUCUUUAUUUCCUCACUAGAGUAGGAAAAAGCCCAGUGUAUUCCUCAUGAAUGCUCUCUAAACCUGUGAAGAGC,0.172
CAUCCAGGUGAUGGAUGGGGAGAAGGAUCCCCGUAAUCUCCUGCUGGCUUUCCGCAUCGUCCAUGACCUCAUCUCCAAGGACUACAGUCUGGGACCUUUCGUGGAAGAGUUAUUUGAAGU,0.0471
CAGUGGCCCCAUGGAGAGCUUUCUCUGUCUGGGAUUGAACUGAGAUCCUGAGGUUUUCUUUUAGGAAACUAAAGUAAACUUGCCAUUACUAAAUUUGUAAAGUUGAGAUUCACUCCUUAA,0.0696

# Study 2
# Target: RNA binding protein fox-1 homolog 2, RRM domain, GST-SBP tag (RBFOX2, Homo sapiens, UniProt O43251-10, residues 100-194)
# Technique: RNA Bind-n-Seq
# Form: RNA
# Sample: in vitro
# Concentration: 365 nM
# Setting: natural RNA segment, single round, ends assumed
# Reference: no-protein control
# Reading: higher = stronger binding
# Shared flanks, not repeated: GGGAGUUCUACAGUCCGACGAUC … UGGAAUUCUCGGGUGCCAA
# Residues (chain): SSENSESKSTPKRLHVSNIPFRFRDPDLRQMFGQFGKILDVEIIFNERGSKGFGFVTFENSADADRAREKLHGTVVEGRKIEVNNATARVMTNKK
Sequence,RBNS enrichment (R)
CCCUGGAUGGUACCGUUUCUUCUCCGUCUCUCUUUGAUGAUUCUUUGGGACCAAAGUCCUCUCCUUAGUGCGCCUACUUCCUGUGGGCAUCAUGCCACUUGGAACUUAUU,0.338
AGGCCUCCCACAGGUGUCCCGGCAAGAGAAGACACGGUGGUGGAAGAAGAGGCCUGGUAAUGGCCCCUCCUCCUGGGACCCCUUCGUCCUCUCCUUACCCCACCUCCUGG,0.197
CCGUGGCCCGUGGUGCAGCCGUGGCCCAUGGCAGCCUGUAGAAUCCAGGUGCACAGAGAGCCCUGCCACCGUCUUACCUCUGGGCUUUGGUGCUUAACACACAACACAGC,0.285
UUUUUUCCAUAUUUUUGAAAGAUUUUUCAGAUGUGAACAUUAAAAAUAGGGAUUAAAUGUCUAGGCUUCCAUUUAAAAUUAUAUGAAUGGUUUGGGAUCUUUUUGCACUG,0.94
UUAGUAGCCACUAGACAACCACCCUUUCUGAAAGCAAACAGUGCUGCUCUUUAUUCCAGACAAGGCAGGAAAGUCUGAGUUGGGAGUGACAGUGGCUGGAGAGAAGCAGA,0.375
AUAUUAUAUCAGACCUCCUUAAGAAAAUGAGUAUGGAUGUUCACAGUAUGUUUGAUUUUUAUCCACAAGAAUGAAUCUGAUUCAGAAUGCUUUUCAGCUGACAUACAGAG,5.73
UGUGUAUGUUUUUGCUUCCCAUGUAACUUCUCCAGUGUUCUGGCAUGAAUUAGAUUUUACUGCUUGUCAUUUUGUUAUUUUCUUACCAAGUGCAUUGAUAUGUGAAGUAG,3.34
UCUGGAACAUGGGCACAGAGAGGGGCCUGUGGGAGGGGCUGGGAAAAUAAAGUCCAAGGUCGAGACCAGACAGCUGCCAGCCUCUACAUGCCUUCAUGAGCCUCUGCUCC,0.483
AUAUGGAUUUUUUUCCUUAAGAAAAUCUCCUUUUAGGAGAUCAUGGUGUCACAGUGUUUGGUUCUUUUGUUUUGUUUUUUAACACUUGUCUCCCCUCAUACACAAAAGUA,0.42
GUGAGUCUGAGCCGGAAGGGGUACGUGGUGGGCGCCCCUCAUUGUGGCUGGGGAGACCUCAUACCCCAUCGCCCACCCCCGUCCUCCUGGUCAUUUCCUCCCAGACACUG,0.497
AUCAGGAACUGUAUUUUUUUUAAUGAUUUGCUUUUGAAACUUGAAGUCUUGAAAACAGUGUGAUGCAAUUACUGCUGUUCUAGCCCCCAAAGAGUUUUCUGUGCAAAAUC,0.693
AUCUUCCUGGCACUUAGUGUUUCUAUGUUAUUGAAAAAUGAUGUUCCAGAAAGAUUACUUUUUUCCUCUUAUUUUUACUGCCAUUGUCGACCUAUUGUGGGACAUUUUUA,0.517

# Study 3
# Target: Histone acetyltransferase KAT6A, winged helix 1, GST fusion (KAT6A, Homo sapiens, UniProt Q92794, residues 1-85)
# Technique: protein binding microarray
# Form: double-stranded DNA, one strand shown
# Sample: in vitro
# Concentration: not given
# Setting: 8-mer, flanks averaged, mean of 2 arrays, mostly near background
# Reference: not given
# Reading: higher = stronger binding
# Target sequence (chain): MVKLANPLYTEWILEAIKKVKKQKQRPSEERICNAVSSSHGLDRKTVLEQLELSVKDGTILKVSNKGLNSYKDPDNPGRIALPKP
Sequence,E-score
AACATCCG,0.122
GTCAGAGA,-0.187
AATGTAAC,-0.0444
CACGTTAC,0.0296
AGAAAGGA,-0.113
GGTTATTA,0.0463
AACAAGCC,-0.0664
CGACAGTA,0.084
ACCTCGTG,-0.038
GTGGTGTA,-0.194
AACTCAAA,-0.14
GCAAGCGC,0.35
CCCCTGTA,0.00973
ACTTATTC,-0.0896
AGAAATTG,-0.282
GGGGCCGA,0.222
CGGAGGCC,0.251
CTCCTAGC,-0.0127
AAGATACA,-0.15
CTCTTGTA,-0.133
CAGGCGCA,0.159

# Study 4
# Target: Interferon regulatory factor 7, full length, phosphomimetic (IRF7, Homo sapiens, UniProt Q92985, residues 1-503, S471D/S472D/S475D/S476D/S477D/S483D/S484D/S487D)
# Sequence of UniProt Q92985 (whole entry, unmodified, looked up): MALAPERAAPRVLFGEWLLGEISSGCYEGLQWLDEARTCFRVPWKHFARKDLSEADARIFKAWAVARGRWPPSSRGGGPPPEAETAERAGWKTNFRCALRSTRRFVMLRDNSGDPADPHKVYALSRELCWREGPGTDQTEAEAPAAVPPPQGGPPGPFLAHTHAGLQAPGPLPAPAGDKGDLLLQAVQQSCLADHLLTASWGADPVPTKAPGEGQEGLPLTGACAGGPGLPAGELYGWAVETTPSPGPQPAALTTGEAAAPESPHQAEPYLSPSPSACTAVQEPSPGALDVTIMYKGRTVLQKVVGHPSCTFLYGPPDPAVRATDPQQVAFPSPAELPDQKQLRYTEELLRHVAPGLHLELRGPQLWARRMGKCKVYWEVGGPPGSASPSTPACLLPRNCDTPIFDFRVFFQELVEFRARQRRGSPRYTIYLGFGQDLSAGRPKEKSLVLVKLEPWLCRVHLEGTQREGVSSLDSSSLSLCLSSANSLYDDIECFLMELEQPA
# Technique: protein-binding microarray
# Form: double-stranded DNA, one strand shown
# Sample: in vitro
# Concentration: 2200 nM top
# Setting: 60-bp whole probe
# Added: salmon DNA 0.4 mg/ml
# Reference: random background probes
# Reading: higher = stronger binding
# Shared flanks, not repeated: GCCTAGCAC … GTCTTGATTCGCTTGACGCTGCTG
Sequence,fitted relative affinity [z-score]
TCAGCTTTCTCTTTCACACTGTGCTAG,5.84
GACGGTTTCGGGATCGGGACGTGCTAG,6.06
GCCGGACTGGGACTGGGGACGTGCTAG,-0.81
GTGAATATATGTATATATGTGTGCTAG,0.588
AATCATTTTAGTTTTCATTAGTGCTAG,2.41
AACGATTTCAGTTTCGAGACGTGCTAG,5.75
TCACGTCTGGGTGTTTTACTGTGCTAG,0.796
TCAAGTATGTTCACTATTACTGTGCTA,0.451
TTAGGTTTCCGGTATCGGTTAGTGCTA,2.61
TCAAATTTTTGCATCGTACTGTGCTAG,1.1
GACGCACTGGGGACTGGAGACGTGCTA,-0.428
TCCTCTCTGCCACTCAGGTAGTGCTAG,1.14
GACGAACTGGGGTTTCGAGAAGTGCTA,0.374
TTAGATATCACTATCGATTAGTGCTAG,0.358
GACGGTCTAGGACTGGGGACGTGCTAG,-0.726
TTAGGTTTCGACTCTGGGTTAGTGCTA,4.66
GACGGTATCGAGTTTCGGGACGTGCTA,2.22
TCAATTATTTATTGTAGCACTGTGCTA,-0.184
TCATTTTGCTTTCTTTTACTGTGCTAG,4.17
TTAGGACCGGACTATCGGTTAGTGCTA,-0.448
TTAGAACTGAGTCTCGCTTAGTGCTAG,-0.222
TTAGATTTCAGACTGGAGTAGTGCTAG,-0.273

# Repeated from above (study 2):
Sequence,RBNS enrichment (R)
AUCUUCCUGGCACUUAGUGUUUCUAUGUUAUUGAAAAAUGAUGUUCCAGAAAGAUUACUUUUUUCCUCUUAUUUUUACUGCCAUUGUCGACCUAUUGUGGGACAUUUUUA,0.517
UUUUUUCCAUAUUUUUGAAAGAUUUUUCAGAUGUGAACAUUAAAAAUAGGGAUUAAAUGUCUAGGCUUCCAUUUAAAAUUAUAUGAAUGGUUUGGGAUCUUUUUGCACUG,0.94
UUAGUAGCCACUAGACAACCACCCUUUCUGAAAGCAAACAGUGCUGCUCUUUAUUCCAGACAAGGCAGGAAAGUCUGAGUUGGGAGUGACAGUGGCUGGAGAGAAGCAGA,0.375
CCCUGGAUGGUACCGUUUCUUCUCCGUCUCUCUUUGAUGAUUCUUUGGGACCAAAGUCCUCUCCUUAGUGCGCCUACUUCCUGUGGGCAUCAUGCCACUUGGAACUUAUU,0.338
